Measurements pooled from the literature.
Each line is one published result; not all experiments were run side by side. Numbers after ± are the reported error.
Replicase polyprotein 1ab main protease: Replicase polyprotein 1ab, main protease (Feline coronavirus, UniProt Q98VG9)
GRM2: Metabotropic glutamate receptor 2 (GRM2, Homo sapiens, UniProt Q14416)
Chain of UniProt Q14416 (whole entry, looked up): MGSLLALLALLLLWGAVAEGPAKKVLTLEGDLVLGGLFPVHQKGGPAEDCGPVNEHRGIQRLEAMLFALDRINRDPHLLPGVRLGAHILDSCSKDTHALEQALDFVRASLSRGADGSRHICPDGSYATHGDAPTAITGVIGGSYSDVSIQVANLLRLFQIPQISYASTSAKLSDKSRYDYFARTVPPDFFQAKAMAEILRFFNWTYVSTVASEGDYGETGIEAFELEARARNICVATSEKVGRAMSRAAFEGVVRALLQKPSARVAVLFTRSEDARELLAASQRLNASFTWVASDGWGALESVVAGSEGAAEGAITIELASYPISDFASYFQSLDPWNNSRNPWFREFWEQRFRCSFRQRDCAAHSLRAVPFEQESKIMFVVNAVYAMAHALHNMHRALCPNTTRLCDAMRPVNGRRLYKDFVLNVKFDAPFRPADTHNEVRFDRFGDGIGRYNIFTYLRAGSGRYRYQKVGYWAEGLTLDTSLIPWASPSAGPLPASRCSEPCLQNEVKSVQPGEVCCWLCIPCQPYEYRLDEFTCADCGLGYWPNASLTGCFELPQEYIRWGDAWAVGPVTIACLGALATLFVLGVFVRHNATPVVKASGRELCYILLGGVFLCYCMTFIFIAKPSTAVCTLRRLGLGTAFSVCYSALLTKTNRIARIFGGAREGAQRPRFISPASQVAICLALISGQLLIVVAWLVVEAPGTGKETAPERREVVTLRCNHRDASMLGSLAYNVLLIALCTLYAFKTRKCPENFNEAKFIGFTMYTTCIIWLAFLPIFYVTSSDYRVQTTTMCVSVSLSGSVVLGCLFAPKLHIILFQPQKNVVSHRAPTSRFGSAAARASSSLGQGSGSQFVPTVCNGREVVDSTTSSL
CDK2 with cyclin A: Cyclin-dependent kinase 2, with cyclin A (CDK2, Homo sapiens, UniProt P24941)
Chain of UniProt Q8ILG2 (whole entry, looked up): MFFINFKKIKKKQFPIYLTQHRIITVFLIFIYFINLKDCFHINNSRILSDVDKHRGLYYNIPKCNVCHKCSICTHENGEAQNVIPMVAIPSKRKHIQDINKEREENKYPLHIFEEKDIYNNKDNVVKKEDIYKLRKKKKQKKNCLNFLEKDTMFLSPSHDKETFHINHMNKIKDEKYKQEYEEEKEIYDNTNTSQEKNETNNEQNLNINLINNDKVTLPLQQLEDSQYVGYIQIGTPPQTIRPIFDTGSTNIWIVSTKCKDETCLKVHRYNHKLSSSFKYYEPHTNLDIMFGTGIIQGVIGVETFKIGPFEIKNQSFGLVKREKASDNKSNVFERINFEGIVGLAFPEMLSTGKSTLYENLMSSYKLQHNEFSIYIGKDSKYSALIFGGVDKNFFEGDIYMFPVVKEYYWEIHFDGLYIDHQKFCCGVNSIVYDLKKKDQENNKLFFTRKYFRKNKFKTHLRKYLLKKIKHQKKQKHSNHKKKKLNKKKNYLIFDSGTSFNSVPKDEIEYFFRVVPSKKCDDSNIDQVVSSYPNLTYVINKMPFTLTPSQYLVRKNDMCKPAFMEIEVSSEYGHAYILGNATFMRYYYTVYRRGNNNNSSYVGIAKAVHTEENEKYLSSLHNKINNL
Chain of UniProt Q9HC97 (whole entry, looked up): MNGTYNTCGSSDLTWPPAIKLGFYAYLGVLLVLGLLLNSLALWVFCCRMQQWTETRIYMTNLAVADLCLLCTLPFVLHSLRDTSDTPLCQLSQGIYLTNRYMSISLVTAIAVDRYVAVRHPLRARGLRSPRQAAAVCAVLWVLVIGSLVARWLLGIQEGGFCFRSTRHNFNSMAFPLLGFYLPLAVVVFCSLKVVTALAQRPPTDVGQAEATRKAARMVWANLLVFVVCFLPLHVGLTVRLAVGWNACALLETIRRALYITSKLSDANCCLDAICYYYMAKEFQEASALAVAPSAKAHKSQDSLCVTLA

SMILES | target | test | system | setting | measurement | value
COc1cc(-c2ccc3nc(NC(=O)C4CCCCC4)nn3c2)ccc1O | crk3, with CYC6 (Leishmania mexicana, UniProt O15851) | inhibitor, IMAP fluorescence polarisation |  | added: ATP 100 µM | IC50 | 0.24 µM
O=C(N[C@@H](CC1CCCCC1)C(=O)N[C@@H](C[C@@H]1CCNC1=O)C(O)S(=O)(=O)O)OCc1cccc(Cl)c1 (stereo partly shown) | Replicase polyprotein 1ab main protease | enzyme activity, inhibitor, FRET |  |  | IC50 | 0.15 µM
O=C(O)c1cc(O)ccc1O | G-protein coupled receptor 35 (GPR35, Homo sapiens, UniProt Q9HC97) | β-arrestin recruitment, agonist |  |  | EC50 | > 500000 nM
O=C[C@H](C[C@@H]1CCNC1=O)NC(=O)[C@H](CC1CCCCC1)NS(=O)(=O)c1cccc(Cl)c1 | Replicase polyprotein 1a, 3C-like proteinase (Ferret coronavirus, UniProt A0A172B201) | enzyme activity, FRET | NL-2010 |  | IC50 | 9.16 ± 1.72 µM
Cc1ccc(Oc2ccc(-c3ccn4c(CC5CC5)nnc4c3C(F)(F)F)cc2F)c(C)n1 | GRM2 | agonist |  | no glutamate | EC50 | 269 nM
CC(C)C[C@H](NC(=O)[C@@H](NC(=O)[C@H](CCONC(=N)N)NC(=O)OCc1ccccc1)C(C)C)[C@@H](O)CC(=O)NCCc1ccccc1 | Plasmepsin IX (Plasmodium falciparum, UniProt Q8ILG2) | enzyme activity, inhibitor |  |  | IC50 | > 99 µM
CCCCn1ccn2c(-c3ccc(Oc4ccnc(C)c4)c(F)c3)c(C)nc2c1=O | GRM2 | GTPγS binding, positive allosteric modulator |  | added: EC20 glutamate | EC50 | 24 nM
Cc1cccc(-c2ccc3nc(NC(=O)C4CCOCC4)nn3c2)c1 | CDK2 with cyclin A | enzyme activity, inhibitor |  |  | IC50 | > 100 µM
CC(C)C[C@H](NC(=O)OCc1ccccc1)C(=O)N[C@@H](C[C@@H]1CCNC1=O)C(=O)C(=O)NC1CCCCC1 | Replicase polyprotein 1ab main protease | enzyme activity, inhibitor, FRET |  |  | IC50 | 1.41 µM
FC(F)(F)c1c(-c2ccc3c(ccn3-c3cccnc3)c2)ccn2c(CC3CC3)nnc12 | GRM2 | agonist |  | no glutamate | EC50 | 135 nM
O=C(Nc1nc2ccc(-c3cccc(N4CCOCC4)c3)cn2n1)C1CCCCC1 | CDK2 with cyclin A | enzyme activity, inhibitor |  |  | IC50 | > 100 µM
CCCCn1ccn2c(-c3ccc(NC4CCOCC4)c(Cl)c3)c(C)nc2c1=O | GRM2 | agonist |  | no glutamate | EC50 | 295 nM
O=C(Nc1nc2ccc(-c3cccc4[nH]ccc34)cn2n1)C1CCCCC1 | CDK2 with cyclin A | enzyme activity, inhibitor |  |  | IC50 | > 100 µM

Excerpt of the above:
SMILES | target | test | system | setting | measurement | value
O=C(O)c1cc(O)ccc1O | G-protein coupled receptor 35 (GPR35, Homo sapiens, UniProt Q9HC97) | β-arrestin recruitment, agonist |  |  | EC50 | > 500000 nM
O=C[C@H](C[C@@H]1CCNC1=O)NC(=O)[C@H](CC1CCCCC1)NS(=O)(=O)c1cccc(Cl)c1 | Replicase polyprotein 1a, 3C-like proteinase (Ferret coronavirus, UniProt A0A172B201) | enzyme activity, FRET | NL-2010 |  | IC50 | 9.16 ± 1.72 µM
